Earlier results that unrelated publications cite.
Numbered parts are unrelated; values within a part may stem from several laboratories.

Study 1 — SMILES: CN(C)CC/C=C1/c2ccccc2Sc2ccc(Cl)cc21; cell line: MCF7; method: microarray; concentration: concentration not given; baseline: DMSO; endpoint: log2 fold change
refers to: VEGFA mRNA: 2.18
refers to: STX3 mRNA: 1.99
refers to: SLCO4C1 mRNA: 1.95

Study 2 — organism: Toxoplasma gondii; read-out: parasite growth; concentration: concentration not given; setting: published screen; endpoint: activity class
Nc1nc(N)nc(-c2cc(Cl)ccc2Cl)n1: inactive
Cl.O=C(O)/C=C/c1ccc(Cn2ccnc2)cc1: inactive
CC(C(=O)O)c1ccc(-c2ccccc2)c(F)c1 (centres unmarked): inactive

Other studies, line by line
CCC(=O)N[C@H]1CC[C@@H](C(=O)N(C)c2ccc(-c3nc4ccccc4o3)cc2)C1
IC50 (FASN; cellular activity): 180 nM

CNC[C@H](O)[C@@H](O)[C@H](O)[C@H](O)CO.O=C([O-])CN1CCN(CC(=O)[O-])CCN(CC(=O)O)CCN(CC(=O)[O-])CC1.[Gd+3]
stability constant KGd(HL) (3.0 M NaClO4; 25 °C): 14 M⁻¹

CO[C@@H](C)c1c(Nc2ccc([C@@H](N(C)C(=O)C3CCS(=O)(=O)CC3)C(F)(F)F)cc2)cnc2cc(Cl)nn12
IC50 (MALT1 (human); cellular activity): 1900 nM

c1ccc(N2CCN(Cc3nc4ccccc4[nH]3)CC2)nc1
Ki (DRD4.7; biochemical): 46.8 nM

O=S(=O)(NC1CCC(c2cc(F)ccc2F)(S(=O)(=O)c2ccc(Cl)cc2)CC1)C(F)(F)F (centres unmarked)
IC50 (gamma-secretase human; biochemical potency): < 100 nM

Some of these lines once more (other studies, line by line):
CO[C@@H](C)c1c(Nc2ccc([C@@H](N(C)C(=O)C3CCS(=O)(=O)CC3)C(F)(F)F)cc2)cnc2cc(Cl)nn12
IC50 (MALT1 (human); cellular activity): 1900 nM

c1ccc(N2CCN(Cc3nc4ccccc4[nH]3)CC2)nc1
Ki (DRD4.7; biochemical): 46.8 nM
